Measured values collected from several papers.
A part holds a random share of what one study measured. Changes are numbered by the printed parent chain.

Series 1
Target: TAR DNA-binding protein 43, full length, His tag (TARDBP, Homo sapiens, UniProt Q13148, residues 1-414)
Technique: RNA Bind-n-Seq
Form: RNA
Medium: in vitro
Concentration: 20 nM
Notes: 6-mer, flanks averaged, single round
With: 150 mM LiCl
Baseline: input library
Reading: higher = stronger binding
For `CUAAUC`, “6-mer enrichment (R)” read 0.836.
For `CUAGGU`, “6-mer enrichment (R)” read 0.914.
For `AUCAGG`, “6-mer enrichment (R)” read 0.874.
For `AUACAA`, “6-mer enrichment (R)” read 0.848.
`UAAGGA`: “6-mer enrichment (R)” 0.911.
`CCCUUA`: “6-mer enrichment (R)” 1.11.
`GUCCUG` — result for “6-mer enrichment (R)”: 0.948.
For `GCCACA`, “6-mer enrichment (R)” read 0.942.
`UAGUAU`: “6-mer enrichment (R)” 1.04.
`GAGACC`: “6-mer enrichment (R)” 0.873.
`CUAUAG` — result for “6-mer enrichment (R)”: 0.866.
For `AUUGGC`, “6-mer enrichment (R)” read 0.939.
`AAAACG` — result for “6-mer enrichment (R)”: 0.809.
For `CAUUCA`, “6-mer enrichment (R)” read 0.861.
For `UACAGG`, “6-mer enrichment (R)” read 0.893.
`UUUUAA`: “6-mer enrichment (R)” 1.17.
`AAUGCC`: “6-mer enrichment (R)” 0.904.

Series 2
Target: RING finger protein unkempt homolog, zinc fingers 1-6, GST-SBP tag (UNK, Homo sapiens, UniProt Q9C0B0, residues 30-357)
Sequence of UniProt Q9C0B0 (30-357, looked up): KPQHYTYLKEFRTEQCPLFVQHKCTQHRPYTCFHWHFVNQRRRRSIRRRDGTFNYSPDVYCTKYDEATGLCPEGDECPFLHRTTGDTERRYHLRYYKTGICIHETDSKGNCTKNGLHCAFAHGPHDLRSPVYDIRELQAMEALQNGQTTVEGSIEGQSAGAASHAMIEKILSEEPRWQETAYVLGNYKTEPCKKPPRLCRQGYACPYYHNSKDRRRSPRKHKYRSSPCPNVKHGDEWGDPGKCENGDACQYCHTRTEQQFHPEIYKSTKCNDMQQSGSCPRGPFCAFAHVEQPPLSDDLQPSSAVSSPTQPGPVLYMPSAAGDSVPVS
Technique: RNA Bind-n-Seq
Form: RNA
Medium: in vitro
Concentration: not given
Notes: RNA with constant flanks, human-mouse chimeric sites, ends assumed
Baseline: input RNA pool
Reading: higher = stronger binding
With `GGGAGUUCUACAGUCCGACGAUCCAGCCUCAGAGCCCAGACUUCCUGGAUAUUACCAACCCUAAAGCGGUAUUAGAAAACGCAUUGAGAAACUUCGCCUGUCUGACGACUGGAGAUGUGAUUGCCAUCAACUACAAUGAGAAGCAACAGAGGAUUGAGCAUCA` the bound/input enrichment was 0.335 ratio.
The bound/input enrichment of `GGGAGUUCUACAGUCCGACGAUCCCCCAAUACCAUUUGCAGGUCUGGAACCUGCAUUCUUUUUUUAAAAAACAUGUAUACAUUUUAGGGCUGUAGAUUUAUUUUCCUGGUUUUGUUUUUCAUUGCUGACUUUGAGCACAAGAACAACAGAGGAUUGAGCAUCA` is reported as 1.19 ratio.
For `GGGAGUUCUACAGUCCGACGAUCAAAUCGUGUGUGUCCAAUAUUGAAAGUACUUUAUCUGCACUCCAGUAUGUAAGCAGUAUAGUAGUUUCUUUAGAGAAUAGGUCAGCCAUUGUGAAGUACAAUGCAAGCUUAGUCACUCCACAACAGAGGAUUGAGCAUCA`, the bound/input enrichment was 2.75 ratio.
`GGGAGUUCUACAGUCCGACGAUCGCAUAUGGUUAUCGAGGAAAGGACUGUAGAGCGAAUGUAUACCUGCUUCCGACCGGGGAGAUAGUUUAUUUUAUCGCCUCAGUGGUAGUCCUGUUUAAUUAUGAGGAGAGGACUCAGCGACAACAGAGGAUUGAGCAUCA` has a bound/input enrichment of 0.289 ratio.
The bound/input enrichment of `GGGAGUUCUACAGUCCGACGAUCACUCUUGACUCUUUCCAUCCUCUUCCUUUCCCUCUUGAUAUUCAAGGCCAUGAAUCCCAAAAUAGCUGUCUUAGUGGGAGGCUAGCAAACAGAGGUGGAAUAAAUCCACCCCAGUGUCUCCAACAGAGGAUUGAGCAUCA` is reported as 1.13 ratio.
`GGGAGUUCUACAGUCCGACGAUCCCAAUUGUGGAGCAGUACUUGAAGACAAAAAAGAACUCUAAUAAUUUAAUCAUGAAAUACAUUAGCUGCCGCCUGCUGACACUCAUCAUUAUACUGUUAGCGUGUAUCUACCUGGGCUAUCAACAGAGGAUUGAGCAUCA` has a bound/input enrichment of 1.37 ratio.
The bound/input enrichment of `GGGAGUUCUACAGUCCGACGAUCGAUAAGAAAAGCUUGUUGGAGACCCGAUUGCAUGUCACUGGUAGAGACCUGAGGUGUCAAAUAGCUGAAACCUUUGGAUUUCAAGAAAAUUACAUCAAGAUCGUAAUAAAUAAGAAACAGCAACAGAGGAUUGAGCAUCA` is reported as 0.262 ratio.
`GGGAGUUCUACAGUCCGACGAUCUAUCCAACUUUCUUGCCACAUUUUGAAUUCCAAGACAUUAUUCCUCCAGAUGACUUCCUAACGAGUGAUGAAGAGCAAGAUUUGGUUUUAUUUGGAACUAUGAGAGGUCAUGUGGUUGGACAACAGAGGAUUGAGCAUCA` gave a bound/input enrichment of 0.271 ratio.

Series 3
Target: Interferon regulatory factor 3, full length, phosphomimetic (IRF3, Homo sapiens, UniProt Q14653, residues 1-427, S386D/S396D/S398D/S402D/T404D/S405D)
Sequence of UniProt Q14653 (whole entry, unmodified, looked up): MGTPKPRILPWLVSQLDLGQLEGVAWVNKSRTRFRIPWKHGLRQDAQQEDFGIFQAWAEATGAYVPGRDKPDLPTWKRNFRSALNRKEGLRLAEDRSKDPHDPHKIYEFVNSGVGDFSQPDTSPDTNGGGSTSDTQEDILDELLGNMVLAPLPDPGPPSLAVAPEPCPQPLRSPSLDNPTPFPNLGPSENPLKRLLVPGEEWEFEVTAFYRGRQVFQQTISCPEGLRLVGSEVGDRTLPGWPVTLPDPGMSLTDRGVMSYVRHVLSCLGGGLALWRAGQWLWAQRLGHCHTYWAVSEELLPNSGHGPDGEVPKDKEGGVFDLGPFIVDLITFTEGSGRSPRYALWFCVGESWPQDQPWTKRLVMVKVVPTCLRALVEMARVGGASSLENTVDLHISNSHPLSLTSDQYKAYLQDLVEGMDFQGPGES
Technique: protein-binding microarray
Form: double-stranded DNA, one strand shown
Medium: in vitro
Concentration: 2540 nM top
Notes: 60-bp whole probe
With: salmon DNA 0.4 mg/ml
Baseline: random background probes
Reading: higher = stronger binding
Shared flanks, not repeated: GCCTAGCAC … GTCTTGATTCGCTTGACGCTGCTG
`AACGATTTCAGTTCCGAGACGTGCTAG` — result for “fitted relative affinity”: 2.71 z-score.
Under “fitted relative affinity”, `TCAGGTTTCTGGTTTATACTGTGCTAG` is recorded as 2.22 z-score.
For `GACGGTTTCGAGTTTCGGGACGTGCTA`, “fitted relative affinity” read 4.87 z-score.
Under “fitted relative affinity”, `TTGAAAAAATATTTATTTCAGTGCTAG` is recorded as -0.1 z-score.
For `GAGGGTATCGGGACTGGGGACGTGCTA`, “fitted relative affinity” read 0.211 z-score.
`GACGATTTCAGCATCGAGACGTGCTAG` — result for “fitted relative affinity”: 0.586 z-score.
For `TTAGGATTGCTTCTCCTTTAGTGCTAG`, “fitted relative affinity” read 0.976 z-score.
For `GACGGTTTCGGGACTGCGGACGTGCTA`, “fitted relative affinity” read 4.98 z-score.
`GACGGTTTCGGGTAACGGGACGTGCTA`: “fitted relative affinity” 4.13 z-score.
`GACGATCACAGTTTCGAGACGTGCTAG`: “fitted relative affinity” 1.87 z-score.
Under “fitted relative affinity”, `GACGATCTCCTTTTCCTGACGTGCTAG` is recorded as 3.16 z-score.
Under “fitted relative affinity”, `GACGGTATCGGTATCGGGAGGTGCTAG` is recorded as 4.63 z-score.
`GACGGTATCGGCCTCGGGACGTGCTAG`: “fitted relative affinity” 0.846 z-score.
For `TTGGAACTGGGGTATCGATTAGTGCTA`, “fitted relative affinity” read -0.533 z-score.
`GACGACTTCAGTTTCGAGACGTGCTAG`: “fitted relative affinity” 2 z-score.
For `TTAGGTTTCGACACTGGTTTAGTGCTA`, “fitted relative affinity” read 2.65 z-score.
`TTAGATCTCAGTATGGATTAGTGCTAG`: “fitted relative affinity” 0.21 z-score.
Under “fitted relative affinity”, `GACGGTCTCCCTTTCCTGACGTGCTAG` is recorded as 3.85 z-score.
For `GACGATTTCACACTGGAGACGTGCTAG`, “fitted relative affinity” read 1.45 z-score.

Series 4
Target: CCNB3, cyclin fold, Cln2 fusion (human)
Technique: yeast growth competition, sequencing
Medium: yeast
Notes: strong parent motif
Baseline: not given
Reading: higher = stronger binding
Starting sequence: E2F1 docking peptide (human); PPVKRRLDFETDH
`PPVKRRLDWETDH [F9W]`: “normalised enrichment score” 0.807.
Under “normalised enrichment score”, `PPVKYRLDFETDH [R5Y]` is recorded as 0.194.
`PPVKSRLDFETDH [R5S]` — result for “normalised enrichment score”: -0.204.
Under “normalised enrichment score”, `PPVKRRYDFETDH [L7Y]` is recorded as 0.129.
`PPVKRRLDKETDH [F9K]` — result for “normalised enrichment score”: -0.0185.
For `PPVKRRSDFETDH [L7S]`, “normalised enrichment score” read -0.167.
Under “normalised enrichment score”, `PYVKRRLDFETDH [P2Y]` is recorded as 1.85.
`PTVKRRLDFETDH [P2T]`: “normalised enrichment score” 1.72.
`PPVKRRVDFETDH [L7V]` — result for “normalised enrichment score”: 0.19.
For `PPVKRRLDSETDH [F9S]`, “normalised enrichment score” read 0.193.
Under “normalised enrichment score”, `PPVKRRLDFYTDH [E10Y]` is recorded as 1.74.
`PPVKRRLDFITDH [E10I]` — result for “normalised enrichment score”: 1.23.
Under “normalised enrichment score”, `PPVKRRLDFETMH [D12M]` is recorded as 3.09.
Under “normalised enrichment score”, `PPVKRRLDFENDH [T11N]` is recorded as 2.41.
For `PPVKRRLDFEEDH [T11E]`, “normalised enrichment score” read 1.8.
`PWVKRRLDFETDH [P2W]` — result for “normalised enrichment score”: 1.63.
For `PPVKRRLDFKTDH [E10K]`, “normalised enrichment score” read 1.72.
For `PPVKRKLDFETDH [R6K]`, “normalised enrichment score” read 3.18.
For `PPVKRRLDFRTDH [E10R]`, “normalised enrichment score” read 2.13.
Under “normalised enrichment score”, `PPVKRRLSFETDH [D8S]` is recorded as 1.79.
`PPMKRRLDFETDH [V3M]` — result for “normalised enrichment score”: 0.546.
For `PPVKRQLDFETDH [R6Q]`, “normalised enrichment score” read 0.479.
Under “normalised enrichment score”, `PPWKRRLDFETDH [V3W]` is recorded as 0.743.
Under “normalised enrichment score”, `PPVKRRLDFEQDH [T11Q]` is recorded as 2.44.
Under “normalised enrichment score”, `PPVKRGLDFETDH [R6G]` is recorded as 0.316.
